Assay results of several laboratories.
A part holds a random share of what one study measured. Substitutions count along the parent as printed.

Block 1
Target: Histone acetyltransferase KAT6A, winged helix 2, GST fusion (KAT6A, Homo sapiens, UniProt Q92794, residues 85-181)
Method: protein binding microarray
Molecule type: double-stranded DNA, one strand shown
Medium: in vitro
Tested at: not given
Setting: 8-mer, flanks averaged, mean of 2 arrays, mostly near background
Reference: not given
Direction: higher = stronger binding
Residues (chain): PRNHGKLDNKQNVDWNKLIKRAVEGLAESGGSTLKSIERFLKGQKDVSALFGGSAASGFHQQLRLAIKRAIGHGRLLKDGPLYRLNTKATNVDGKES
| Strand | E-score |
| --- | --- |
| TAGGGGGA | -0.239 |
| GAACTAGA | 0.207 |
| ACGTCATG | -0.11 |
| ATGGGGGA | -0.195 |
| CAAGAACA | 0.0675 |
| GGACAGAA | -0.105 |

Block 2
Target: Interferon regulatory factor 7, full length, phosphomimetic (IRF7, Homo sapiens, UniProt Q92985, residues 1-503, S101K/S471D/S472D/S475D/S476D/S477D/S483D/S484D/S487D)
UniProt Q92985, sequence (whole entry, unmodified, looked up): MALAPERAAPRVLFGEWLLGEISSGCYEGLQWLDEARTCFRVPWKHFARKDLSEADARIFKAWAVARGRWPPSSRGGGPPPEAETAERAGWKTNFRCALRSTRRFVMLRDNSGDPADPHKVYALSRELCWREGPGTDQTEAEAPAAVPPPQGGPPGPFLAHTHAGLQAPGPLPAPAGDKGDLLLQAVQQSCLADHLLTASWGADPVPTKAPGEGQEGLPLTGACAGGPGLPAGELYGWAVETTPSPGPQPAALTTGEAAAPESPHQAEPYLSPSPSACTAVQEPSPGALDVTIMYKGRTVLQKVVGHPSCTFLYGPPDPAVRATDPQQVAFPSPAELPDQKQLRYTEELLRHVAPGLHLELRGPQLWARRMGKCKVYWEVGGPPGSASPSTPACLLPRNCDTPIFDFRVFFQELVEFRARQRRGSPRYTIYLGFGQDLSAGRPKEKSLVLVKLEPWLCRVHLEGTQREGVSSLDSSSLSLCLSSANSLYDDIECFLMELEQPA
Method: protein-binding microarray
Molecule type: double-stranded DNA, one strand shown
Medium: in vitro
Tested at: 250 nM
Setting: 60-bp whole probe
Added: salmon DNA 0.4 mg/ml
Reference: random background probes
Direction: higher = stronger binding
All sequences stand within: GCCTAGCAC … GTCTTGATTCGCTTGACGCTGCTG
| Strand | log fluorescence [z-score] |
| --- | --- |
| TTCCTTTGCTTTCTCCCAAGGTGCTAG | 1.47 |
| GCATTTTTCTAACCCATTGAGTGCTAG | 0.872 |
| GAGGGTTCCGGTTTCGGGACGTGCTAG | 6.62 |
| TTATGTCTGGGTATTTTTTCGTGCTAG | -0.0196 |
| GACCGTTTCCTTCTCCTGACGTGCTAG | 2.35 |
| TTAGAACAGGGGTTTCGATTAGTGCTA | 6.41 |
| GACTCTTTCTGTCAGTTTTGGTGCTAG | 1.14 |
| TTAGGTCTCCTACTGCTTGAGTGCTAG | -0.262 |

Block 3
Target: CCNA1, cyclin fold, Cln2 fusion (human)
Method: yeast growth competition, sequencing
Medium: yeast
Setting: weak parent motif
Reference: not given
Direction: higher = stronger binding
Parent: BRCA2 docking peptide (human); PSIKRNLLNEFDR; partner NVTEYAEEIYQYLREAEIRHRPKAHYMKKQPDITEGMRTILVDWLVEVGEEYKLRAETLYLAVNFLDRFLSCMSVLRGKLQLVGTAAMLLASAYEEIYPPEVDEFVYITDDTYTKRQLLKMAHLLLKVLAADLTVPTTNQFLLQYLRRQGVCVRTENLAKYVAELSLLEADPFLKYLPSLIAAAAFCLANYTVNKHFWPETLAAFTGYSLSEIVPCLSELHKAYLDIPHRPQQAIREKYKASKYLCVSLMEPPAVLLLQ
| Change | normalised enrichment score |
| --- | --- |
| PSIKRNLLNEMDR [F11M] | 0.272 |
| PSIKRNLLNERDR [F11R] | 0.165 |
| PSIKRGLLNEFDR [N6G] | -0.715 |
| PSIKSNLLNEFDR [R5S] | 0.538 |
| PSIKRNLLNEFER [D12E] | 0.578 |
| PSIKRNMLNEFDR [L7M] | 0.251 |

Mixed results
| Molecule | target | test | test system | setting | scale | endpoint | result |
| --- | --- | --- | --- | --- | --- | --- | --- |
| PhoQ, residues 284 288 289 292 302 303 SCCLKL | PhoP, residues 12 14 15 18 19 TTLRV (Escherichia coli, UniProt P23836) | Sort-seq, refers to: YFP reporter | E. coli | PhoQ-PhoP variant library, added: 10 µM Mg2+ | reference: high Mg2+ state, higher = stronger signaling | fold induction | 6.73 |

For quick reference, copied from above (mixed results):
| Molecule | target | test | test system | setting | scale | endpoint | result |
| --- | --- | --- | --- | --- | --- | --- | --- |
| PhoQ, residues 284 288 289 292 302 303 SCCLKL | PhoP, residues 12 14 15 18 19 TTLRV (Escherichia coli, UniProt P23836) | Sort-seq, refers to: YFP reporter | E. coli | PhoQ-PhoP variant library, added: 10 µM Mg2+ | reference: high Mg2+ state, higher = stronger signaling | fold induction | 6.73 |
